Assay results of several laboratories.
Numbered parts are unrelated; each lists some results of a single study.

Study 1
Target: RNA binding protein fox-1 homolog 2, RRM domain, GST-SBP tag (RBFOX2, Homo sapiens, UniProt O43251-10, residues 100-194)
Method: RNA Bind-n-Seq
Molecule type: RNA
Medium: in vitro
Tested at: 365 nM
Setting: natural RNA segment, single round, ends assumed
Relative to: no-protein control
Reading: higher = stronger binding
Residues (chain): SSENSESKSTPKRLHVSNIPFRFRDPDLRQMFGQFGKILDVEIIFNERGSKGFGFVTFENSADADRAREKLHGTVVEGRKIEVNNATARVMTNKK
| Sequence | RBNS enrichment (R) |
| --- | --- |
| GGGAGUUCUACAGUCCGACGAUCUGAUUCACUAAUUAGGGGGAAAAAAGGUCUUGGUGGAUGUCAGUGCUUACUCCCCAUGAAAUUAAAUUUUACUUCAUCCUUUGAGAAGCGAAUGGUGAAAGCUACUGAAAUGGAAUUCUCGGGUGCCAA | 0.429 |
| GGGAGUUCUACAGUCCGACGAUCUUUCGAUAGUUGAUGUCUUCUUGCCUUUUUAAAAAACCAUAUAUAUAUAAAGUUUAGGGUUUGCUCUAUUCUUUGGUAUGGAUUGCUGUGUUCUUUGGGAGGUUAUUAGGUGGAAUUCUCGGGUGCCAA | 0.481 |
| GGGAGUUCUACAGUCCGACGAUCUCCCAGCUAUGGCUUUGGACAACGUGGCUUCGGCCCCUGGGGUUGCAGAGCUUGCAUUGGGUUUACCUCGGUCUCAUUCAUUCAUGGAGCCAAGGGUGGGGUUUCACCUGUGGAAUUCUCGGGUGCCAA | 0.329 |
| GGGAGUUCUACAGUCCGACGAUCCAAGGCCUCCUCUUCCCAGGGGCUGCCAAGUCCUGGCCCUGGCCCUGGCAUAUCACCCCGCACUGUGGGGCCAGGCACCACUAGCCUGGCUCAAAUAUUCCCCAGGGAGAUGGAAUUCUCGGGUGCCAA | 0.312 |
| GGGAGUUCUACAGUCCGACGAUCACGGUCUGGCUCUGUCGCCUAAGCUGGAGUGUGGUGGCACGAUCACAGCUCACUGCAGCCUCCAUCUCCUAGGCUCAAGCCAUUUUCCCACCUCAGCCUCCCGAGUAGCUUGGAAUUCUCGGGUGCCAA | 0.864 |
| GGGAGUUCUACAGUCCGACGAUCGCUGCUGGGGAUUCAGCUCUAGAGGUCACAGUAUCCUCGUUUGAAAGAUAAUUAAGAUCCCCCGUGGAGAAAGCAGUGACACAUUCACACAGCUGUUCCCUCGCAUGUUAUGGAAUUCUCGGGUGCCAA | 11.9 |
| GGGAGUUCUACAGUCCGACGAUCUACAAGUGUUUUAGAUGUUACUACCUUAUUUUCCCCGAAUUCUAUUUUUGUCCUUGCAGACAGAAUAUAAAAACUCCUGGGCUUAAGGCCUAAGGAAGCCAGUCACCUUCUGGAAUUCUCGGGUGCCAA | 0.365 |
| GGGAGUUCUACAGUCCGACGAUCUCCAAUGUGAGCUUUUCGUUCUUAUACAUUUAAUUUCGGGUGAUGUUGGCCAGAGGUAUCUGGGAGAACCUACCCUUUCUAGGAGUGGCUCCUGCCUGACUCUUCCUUCGUGGAAUUCUCGGGUGCCAA | 0.22 |
| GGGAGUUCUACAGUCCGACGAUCUUGUAUUUUCAAAUAAAUAAGUUUGUGAAAGGUUUCCAUCCUCUACUGUGGUCCAGAAAUCAAUGUGUUUGUCUGACAAAAAAAAUAAUAAAAUAAACUGUUUUGAACAGUGGAAUUCUCGGGUGCCAA | 0.77 |
| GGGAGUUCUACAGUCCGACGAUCGAACCAUCUCUUCUGGGCAGUUUUGUUGAAAAUAAAGGUUUCUCUUUGAUUUCAAGAAUGACCAAAAUGGCCUCUAAAAGAUGUUAAUCAUCUCAAAUGACCUUUUGUCUUGGAAUUCUCGGGUGCCAA | 0.98 |
| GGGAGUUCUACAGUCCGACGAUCCAAAGUCAAGUUUGGGGAAAAGGCAGACUAAGGCCUCCUUUCUCUGACCUCCCAGGAAGAAAAUAGCUUCUCCUACAGUGAUUCAUGUCCCAGGUCCAGGAAAUCCAAUGUGGAAUUCUCGGGUGCCAA | 0.245 |
| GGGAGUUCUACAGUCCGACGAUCCCUUCCCAAGUCCAGCCAUGCCCAGAUGCCCGGAGGGAAAACUGACCCCCAGCCAGUAGACAUUGGCUAAGAACACAGAAUCUUCUGACCAAACACGCUUUCAGCAGCUGUGGAAUUCUCGGGUGCCAA | 0.342 |

Study 2
Target: RING finger protein unkempt homolog, zinc fingers 1-6, SBP tag (UNK, Homo sapiens, UniProt Q9C0B0, residues 30-357)
Sequence of UniProt Q9C0B0 (30-357, looked up): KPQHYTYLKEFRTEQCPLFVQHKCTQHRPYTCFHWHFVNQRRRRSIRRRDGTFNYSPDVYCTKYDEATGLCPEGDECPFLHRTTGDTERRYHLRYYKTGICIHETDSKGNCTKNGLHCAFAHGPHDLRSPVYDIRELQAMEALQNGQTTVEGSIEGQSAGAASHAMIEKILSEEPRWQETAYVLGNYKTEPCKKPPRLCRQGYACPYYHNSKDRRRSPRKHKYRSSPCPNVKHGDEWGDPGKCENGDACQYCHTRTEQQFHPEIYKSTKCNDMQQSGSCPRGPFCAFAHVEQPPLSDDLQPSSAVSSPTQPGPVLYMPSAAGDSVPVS
Method: RNA Bind-n-Seq
Molecule type: RNA
Medium: in vitro
Tested at: 100 nM
Setting: RNA with constant flanks, vertebrate orthologous sites, ends assumed
Relative to: input RNA pool
Reading: higher = stronger binding
| Sequence | bound/input enrichment |
| --- | --- |
| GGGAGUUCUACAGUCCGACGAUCAAAACCCCGGUUUUAGAUGUGAUAUUUAGGCUUUCAUUCCAGUUUGUUUUGUCUUUUGUUUAGAUACCAAUCUUUUAAAUUCUUGCAUUUUAGUAAGAAAGCUACCUUUUUAUGGAUGUUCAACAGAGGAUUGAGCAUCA | 0.751 ratio |
| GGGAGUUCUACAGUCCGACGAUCGUGGCACCCUCUGUGAGAGGGAGUGGGGGGAGUCCAGGAUGACCCUCCGUUGUUCCGAUCCAGUAUUUUUUUUCUUUUUUUAAACUUACUGUAUUUAUUAUGACGAUGGUGACUCCCCAGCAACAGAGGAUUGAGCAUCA | 0.346 ratio |
| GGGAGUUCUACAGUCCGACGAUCUGCAUUAUUUGACCAGAGUUGAGGUGACAGAAUUUGAAGACAUCAAAUCAGGUUACAGAAUAGAUUUUUAUUUUGAUGAGAAUCCGUACUUUGAAAAUAAAGUUCUCUCCAAAGAGUUUCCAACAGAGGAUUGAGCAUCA | 0.65 ratio |
| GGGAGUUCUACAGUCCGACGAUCUAAUGUGUUUUUAUUUAUCGAGGAUAGUUUUGUGCUAAAGACCGUGUUAGAUUUAAACAUUAGUGGAUUUAAUUCCUCUUUGUUGUGUUGCUUUCAUUAUUGAAAAUAAAUAGAACUUUGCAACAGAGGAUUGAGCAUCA | 0.322 ratio |
| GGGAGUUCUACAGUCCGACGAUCCUCUAUGGGCCUCGCAGAGUUGAAAUAAUGGAAGAGGAAAGUGAACAGUAAUCUUCAUUUUAGUAUUUAUGUUUAGGUGUGAAAUAAAUGUUAUUUGUUGACCAUUUGUGUAAUCCAGAGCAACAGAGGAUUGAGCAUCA | 1.11 ratio |
| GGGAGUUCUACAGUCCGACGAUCAAAUGAGCUGCUAGGGCAGUAAGAUGGGUUCCCUUUCAUCCCUCAAGGAAAAAAUCUGAAUGGAUUCCUUAACCAUCUAAGUAGGUUAGCUUUCCUGGGUAUUUUUGUUUUGUUUAGAUUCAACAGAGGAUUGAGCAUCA | 0.537 ratio |
| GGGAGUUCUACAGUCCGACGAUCGGUGGUGGGACACAGGCCCUGCCUCAGUGGCUGCUGGCUGCUACCUCAGGCAGGCUGUUUUAGUUCUGUAUUUUUAUUUUAACAGUGCCCUUCCUGUACAUGAGUGAGAUUUUUGAAAAUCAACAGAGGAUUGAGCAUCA | 1.72 ratio |
| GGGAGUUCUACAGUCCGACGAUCGCACAUGCCGCUAUUACCAAAAGCAGACUGCCACUUUUCAAAUUUCAUUCAGUCAUUUUAGUGUUUCCUAUUCCCUACCCUUCCCACAACUUUCAAUGAUGAAAUAUCCUCAGUUCUCUUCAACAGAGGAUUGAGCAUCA | 2.42 ratio |
| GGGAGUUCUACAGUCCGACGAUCCGUCUGCCUCAUUCUAAAAUUUACACAGUAGACCAUUUGUCAUUCAUGCUGUCCCACAAAUAGUUUUUGUUUACGAUUUAUGACAGGUUUAUGUUACUUCUAUUUGGAUUUCUAUAUUUCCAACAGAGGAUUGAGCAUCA | 1.08 ratio |
| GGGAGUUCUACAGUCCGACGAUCCACACUAUAUUGUGGCAUUUAGUCAACAUGGAAGUAGACCAGCUCUGCAGAUUUGAAAUUUAGAUUUUUUUAAAUUAUGUACUGGGGACAGGUUUUUGUCGCUUUACAUUGCUUCCUAGUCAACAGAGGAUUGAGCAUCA | 1.68 ratio |
| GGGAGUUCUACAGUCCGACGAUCUUUUUUUUUUUGCACAUGACAGUGUUUGUAUUGAGGACCUUCCAAGGAAGAGGGGUGCUGUGGCAGUGGUGCCUGGGUGCCUGGUCUCCAGUGUCCCACCUCCUUCACCACCCCACUUGGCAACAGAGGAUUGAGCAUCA | 0.271 ratio |

Study 3
Target: Fragile X messenger ribonucleoprotein 1, C-terminal low-complexity region (Fmr1, Mus musculus, UniProt P35922)
Method: RNA Bind-n-Seq
Molecule type: RNA
Medium: in vitro
Tested at: 200 nM
Setting: whole 134-nt RNA, ends assumed
Together with: 150 mM KCl
Relative to: input library
Reading: higher = stronger binding
| Sequence | log2 enrichment |
| --- | --- |
| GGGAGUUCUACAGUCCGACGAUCUGGCCCUGGUGGCAUGCGGGGAGGAAGAGGUGGCCUCAUCGAUCGUGGUGGUCCCGGUGGAAUGUUCAGAGGUGGCCGUGGUGGAGACAGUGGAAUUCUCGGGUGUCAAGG | 0.0365 |
| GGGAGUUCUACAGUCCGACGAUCCACAGACAACACGCACCCACACAGACACAGAGGGAAGGGGUUGGGAUGGGGACAGGGUGCACAGCAGGGCGGAGUAGGACCCCAGCCCCUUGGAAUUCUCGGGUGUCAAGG | 1.2 |
| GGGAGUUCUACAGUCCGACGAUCCACAGACAACACGCACCCACACAGACACAGAGGGAAGGGGUUGGGAUGGGGACAGGGUGCACAGCAGAGCGGGGUAGGACCCCAGCCCCUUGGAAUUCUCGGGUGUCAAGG | 1.22 |
| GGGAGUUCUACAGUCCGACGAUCUCAAGUCCUGUGCUACACAUCGUAUGUACCGAAUCGGAAAGGAAAGGGGAAAGGGAAAGUAUUAUGUUACGCCGUUCGGAUCUGCACUUCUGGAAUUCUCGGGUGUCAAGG | -0.471 |
| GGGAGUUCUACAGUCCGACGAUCGUCCUGUGCUACACAUCGUAUGUACCGAAUCGGGGUUUGGGGUUUUUGGGGAAAGGGGAAAGUAUUAUGUUACGCCGUUCGGAUCUGCACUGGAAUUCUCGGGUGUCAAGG | 0.877 |
| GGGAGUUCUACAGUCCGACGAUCCACAGACAACACGCACCCACACAGACACAGUGGGAAGGGGUUGGGAUGGGGACAGGGUGCACAGCAGGGCGGGGUAGGACCCCAGCCCCUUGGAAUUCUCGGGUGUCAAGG | 1.34 |
| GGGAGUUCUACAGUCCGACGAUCGUCCUGUGCUACACAUCGUAUGUACCGAAUCGGGGAGGGGAAAGGGGAAAAAAAGGGGAAAGUAUUAUGUUACGCCGUUCGGAUCUGCACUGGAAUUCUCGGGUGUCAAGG | 0.166 |
| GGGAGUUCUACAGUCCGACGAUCCUGUGCUACACAUCGUAUGUACCGAAUCGGGCCCCCCCGGGGCCCCCCCGGGCCCCCCCGGAAAGUAUUAUGUUACGCCGUUCGGAUCUGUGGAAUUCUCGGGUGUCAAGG | -1.04 |
| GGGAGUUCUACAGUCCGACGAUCGCAGGAAGUAAAAAGAAAUGGAAAUGCUUCGGAUAGUGGCAGGGGUGGGGGUUGCUAAGGAAAGGGUGGGAUGGGAGUGGGUAAAGAGUUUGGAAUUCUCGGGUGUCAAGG | 0.0776 |
| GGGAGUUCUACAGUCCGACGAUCCAAGUCCUGUGCUACACAUCGUAUGUACCGAAUCGGUUUGGUUUUUUUGGUUUGGAAAGUAUUAUGUUACGCCGUUCGGAUCUGCACUUCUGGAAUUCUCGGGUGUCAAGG | -0.596 |

Study 4
Target: Histone acetyltransferase KAT6A, winged helix 1, GST fusion (KAT6A, Homo sapiens, UniProt Q92794, residues 1-85)
Method: protein binding microarray
Molecule type: double-stranded DNA, one strand shown
Medium: in vitro
Tested at: not given
Setting: 8-mer, flanks averaged, mean of 2 arrays, mostly near background
Relative to: not given
Reading: higher = stronger binding
Residues (chain): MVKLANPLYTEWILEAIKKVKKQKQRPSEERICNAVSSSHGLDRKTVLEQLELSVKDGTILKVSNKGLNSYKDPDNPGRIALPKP
| Sequence | E-score |
| --- | --- |
| AAGAGTAG | -0.059 |
| CAAAGGGG | -0.227 |
| ACACTAAG | -0.146 |
| AAGTATGT | -0.208 |
| ATCTTAGG | -0.111 |
| CCGGTTTC | 0.242 |
| ACGATCGC | 0.168 |
| AAGAGGGG | -0.204 |
| CTGCGGAC | 0.153 |
| CAGGGCCA | -0.132 |
| CGATTACG | 0.0471 |
| CTGGCGCA | 0.215 |
| GCTCGAGC | 0.163 |
| CACTCACA | -0.131 |
| ATATACGC | 0.251 |
| GCCTTTCC | 0.0823 |
| GGATGCTA | -0.0229 |
| GCTAAGTA | -0.109 |
| CCTATACG | 0.0279 |
| ACCAATTG | -0.164 |
| CCCCCAAG | -0.296 |
| GGGTCGAC | 0.0835 |
| GACAATAA | -0.0709 |
| AAGTCATT | -0.105 |
| CTAAGCAG | -0.0298 |
